Measured values from different studies.
Numbered parts are unrelated; each lists some results of a single study.
Sequence of UniProt P20794 (whole entry, looked up): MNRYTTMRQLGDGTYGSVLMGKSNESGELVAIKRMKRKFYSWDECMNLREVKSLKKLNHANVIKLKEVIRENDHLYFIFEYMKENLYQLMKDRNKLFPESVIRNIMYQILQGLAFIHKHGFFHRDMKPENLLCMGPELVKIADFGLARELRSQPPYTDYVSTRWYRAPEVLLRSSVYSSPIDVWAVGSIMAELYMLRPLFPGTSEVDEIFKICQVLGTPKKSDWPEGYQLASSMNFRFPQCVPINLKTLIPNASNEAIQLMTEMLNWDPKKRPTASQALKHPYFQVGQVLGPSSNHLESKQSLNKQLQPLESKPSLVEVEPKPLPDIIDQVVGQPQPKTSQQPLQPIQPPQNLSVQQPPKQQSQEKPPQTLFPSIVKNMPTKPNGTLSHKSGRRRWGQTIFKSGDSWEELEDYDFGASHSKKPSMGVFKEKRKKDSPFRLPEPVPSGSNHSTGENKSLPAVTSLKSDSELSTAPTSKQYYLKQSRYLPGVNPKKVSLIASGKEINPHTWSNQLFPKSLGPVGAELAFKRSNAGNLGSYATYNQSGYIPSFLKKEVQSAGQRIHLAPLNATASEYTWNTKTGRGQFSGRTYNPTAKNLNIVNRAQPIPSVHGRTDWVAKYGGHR
Sequence of UniProt P47898 (whole entry, looked up): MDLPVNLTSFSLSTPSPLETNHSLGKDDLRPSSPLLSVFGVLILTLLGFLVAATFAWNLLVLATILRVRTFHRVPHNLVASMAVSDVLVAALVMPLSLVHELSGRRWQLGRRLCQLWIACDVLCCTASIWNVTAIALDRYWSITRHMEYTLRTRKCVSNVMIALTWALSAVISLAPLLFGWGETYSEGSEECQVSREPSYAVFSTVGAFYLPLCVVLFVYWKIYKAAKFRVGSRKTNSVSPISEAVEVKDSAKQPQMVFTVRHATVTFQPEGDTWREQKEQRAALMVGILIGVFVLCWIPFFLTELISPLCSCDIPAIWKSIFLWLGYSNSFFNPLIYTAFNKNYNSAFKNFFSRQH
Sequence of UniProt Q02156 (whole entry, looked up): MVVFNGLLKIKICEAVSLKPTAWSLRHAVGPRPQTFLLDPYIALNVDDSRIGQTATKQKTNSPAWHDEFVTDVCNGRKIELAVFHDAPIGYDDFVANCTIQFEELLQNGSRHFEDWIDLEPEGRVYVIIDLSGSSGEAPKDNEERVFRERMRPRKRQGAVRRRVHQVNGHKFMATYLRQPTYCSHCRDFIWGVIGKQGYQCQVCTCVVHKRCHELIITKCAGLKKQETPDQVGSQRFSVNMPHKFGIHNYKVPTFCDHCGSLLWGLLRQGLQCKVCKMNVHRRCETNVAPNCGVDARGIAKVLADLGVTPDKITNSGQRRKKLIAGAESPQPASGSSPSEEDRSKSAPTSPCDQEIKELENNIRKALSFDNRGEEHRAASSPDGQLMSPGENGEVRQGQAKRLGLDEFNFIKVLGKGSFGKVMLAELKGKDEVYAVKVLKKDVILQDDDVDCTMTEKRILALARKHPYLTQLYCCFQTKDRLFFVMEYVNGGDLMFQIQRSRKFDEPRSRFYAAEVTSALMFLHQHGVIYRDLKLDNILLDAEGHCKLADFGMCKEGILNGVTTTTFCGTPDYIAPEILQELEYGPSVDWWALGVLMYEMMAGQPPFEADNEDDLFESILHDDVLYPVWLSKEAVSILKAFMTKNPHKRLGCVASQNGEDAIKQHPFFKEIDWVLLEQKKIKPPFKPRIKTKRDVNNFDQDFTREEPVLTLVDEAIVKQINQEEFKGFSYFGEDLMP
Sequence of UniProt P28482 (whole entry, looked up): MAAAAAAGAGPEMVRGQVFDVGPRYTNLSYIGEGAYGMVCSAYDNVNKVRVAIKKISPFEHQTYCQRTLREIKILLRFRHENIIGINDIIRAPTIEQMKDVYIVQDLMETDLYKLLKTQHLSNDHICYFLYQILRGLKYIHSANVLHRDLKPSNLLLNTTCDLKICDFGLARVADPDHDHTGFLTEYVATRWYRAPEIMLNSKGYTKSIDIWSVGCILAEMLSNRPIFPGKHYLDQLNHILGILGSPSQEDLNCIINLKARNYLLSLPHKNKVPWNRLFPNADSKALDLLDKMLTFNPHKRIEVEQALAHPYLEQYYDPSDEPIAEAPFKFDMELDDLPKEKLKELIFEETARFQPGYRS
Sequence of UniProt Q08881 (whole entry, looked up): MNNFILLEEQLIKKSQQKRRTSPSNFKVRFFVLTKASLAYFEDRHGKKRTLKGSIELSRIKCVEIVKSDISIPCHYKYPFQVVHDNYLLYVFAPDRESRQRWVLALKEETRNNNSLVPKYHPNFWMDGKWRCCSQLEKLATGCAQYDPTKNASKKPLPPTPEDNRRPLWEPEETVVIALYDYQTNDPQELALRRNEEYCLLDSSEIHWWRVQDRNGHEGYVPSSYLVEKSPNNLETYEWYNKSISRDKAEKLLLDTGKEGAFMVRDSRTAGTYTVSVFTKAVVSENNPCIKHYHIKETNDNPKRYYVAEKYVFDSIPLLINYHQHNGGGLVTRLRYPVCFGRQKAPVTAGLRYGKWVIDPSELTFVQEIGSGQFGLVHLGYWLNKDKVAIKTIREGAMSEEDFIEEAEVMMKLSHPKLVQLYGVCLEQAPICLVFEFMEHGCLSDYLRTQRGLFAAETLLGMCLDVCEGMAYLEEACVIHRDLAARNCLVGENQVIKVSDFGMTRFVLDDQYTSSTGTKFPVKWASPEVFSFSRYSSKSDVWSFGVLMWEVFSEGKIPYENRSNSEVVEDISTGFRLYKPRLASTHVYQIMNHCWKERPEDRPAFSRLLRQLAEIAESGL
Sequence of UniProt P52333 (whole entry, looked up): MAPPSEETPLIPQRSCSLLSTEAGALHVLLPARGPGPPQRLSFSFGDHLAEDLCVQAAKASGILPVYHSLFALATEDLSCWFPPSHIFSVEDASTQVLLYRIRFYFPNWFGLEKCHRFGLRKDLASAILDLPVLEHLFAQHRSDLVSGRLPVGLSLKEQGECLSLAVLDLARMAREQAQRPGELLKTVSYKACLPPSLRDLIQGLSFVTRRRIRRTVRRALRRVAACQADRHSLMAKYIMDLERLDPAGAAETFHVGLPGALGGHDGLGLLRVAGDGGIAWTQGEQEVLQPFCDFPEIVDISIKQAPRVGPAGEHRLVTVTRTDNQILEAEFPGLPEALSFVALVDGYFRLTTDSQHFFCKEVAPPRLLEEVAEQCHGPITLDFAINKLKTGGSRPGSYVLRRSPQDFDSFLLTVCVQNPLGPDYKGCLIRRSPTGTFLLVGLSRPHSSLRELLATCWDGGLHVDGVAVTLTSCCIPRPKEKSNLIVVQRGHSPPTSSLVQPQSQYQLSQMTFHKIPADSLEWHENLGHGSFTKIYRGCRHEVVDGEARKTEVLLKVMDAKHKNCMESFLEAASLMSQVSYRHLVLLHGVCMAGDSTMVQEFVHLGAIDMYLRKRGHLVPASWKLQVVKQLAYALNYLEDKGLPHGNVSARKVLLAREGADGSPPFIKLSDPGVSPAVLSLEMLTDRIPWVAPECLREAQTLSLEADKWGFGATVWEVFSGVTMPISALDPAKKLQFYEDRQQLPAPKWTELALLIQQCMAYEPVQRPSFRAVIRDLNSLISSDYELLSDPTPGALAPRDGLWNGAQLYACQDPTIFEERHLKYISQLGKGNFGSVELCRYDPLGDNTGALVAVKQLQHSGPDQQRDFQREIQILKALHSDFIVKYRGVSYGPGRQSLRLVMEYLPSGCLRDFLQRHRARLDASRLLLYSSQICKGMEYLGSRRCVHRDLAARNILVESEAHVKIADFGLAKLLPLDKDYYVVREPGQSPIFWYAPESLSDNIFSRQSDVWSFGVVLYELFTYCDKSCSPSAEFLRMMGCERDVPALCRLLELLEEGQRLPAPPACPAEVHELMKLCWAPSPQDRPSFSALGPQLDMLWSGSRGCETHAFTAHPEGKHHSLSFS
Sequence of UniProt O14965 (whole entry, looked up): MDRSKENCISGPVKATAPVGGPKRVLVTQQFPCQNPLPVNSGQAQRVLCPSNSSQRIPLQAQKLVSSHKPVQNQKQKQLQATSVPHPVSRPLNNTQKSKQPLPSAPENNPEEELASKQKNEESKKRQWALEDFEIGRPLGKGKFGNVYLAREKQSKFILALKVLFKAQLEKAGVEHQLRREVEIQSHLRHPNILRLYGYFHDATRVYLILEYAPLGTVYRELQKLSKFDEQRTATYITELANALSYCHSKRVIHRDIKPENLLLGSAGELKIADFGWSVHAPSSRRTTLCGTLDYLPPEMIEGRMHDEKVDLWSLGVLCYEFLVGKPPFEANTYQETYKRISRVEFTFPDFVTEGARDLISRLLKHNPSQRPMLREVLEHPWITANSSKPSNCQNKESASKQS

Block 1
Target: Cyclin-dependent kinase 5, with p35 (CDK5, Homo sapiens, UniProt Q00535)
Sequence of UniProt Q00535 (whole entry, looked up): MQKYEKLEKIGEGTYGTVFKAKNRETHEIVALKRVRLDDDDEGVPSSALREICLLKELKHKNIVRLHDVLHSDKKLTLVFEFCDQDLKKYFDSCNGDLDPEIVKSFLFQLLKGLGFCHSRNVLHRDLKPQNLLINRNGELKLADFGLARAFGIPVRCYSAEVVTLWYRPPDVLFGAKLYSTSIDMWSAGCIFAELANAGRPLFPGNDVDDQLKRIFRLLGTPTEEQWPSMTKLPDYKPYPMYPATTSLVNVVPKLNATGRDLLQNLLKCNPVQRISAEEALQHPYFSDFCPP
Read-out: enzyme activity
Action: inhibitor
Concentration: 0.5 µM
Reference: control
| SMILES | remaining activity |
| --- | --- |
| C#Cc1cccc(Nc2ncnc3cc(OCCOC)c(OCCOC)cc23)c1 | 108% |
| COc1cc2ncnc(Nc3ccc(F)c(Cl)c3)c2cc1OCCCN1CCOCC1 | 103% |
| N#CC(C#N)=C(N)/C(C#N)=C/c1ccc(O)cc1 | 91.9% |
| Cn1c2ccccc2c2c3c(c4c5ccccc5n(CCC#N)c4c21)CNC3=O | 8.52% |
| COc1ccc(CNC(=O)Nc2ncc([N+](=O)[O-])s2)cc1 | 96.4% |
| O=c1c2ccccc2[nH]c(=S)n1CCN1CCC(=C(c2ccc(F)cc2)c2ccc(F)cc2)CC1 | 101% |
| CNC(=O)c1cc(Oc2ccc(NC(=O)Nc3ccc(Cl)c(C(F)(F)F)c3)cc2)ccn1 | 99.9% |
| Cc1cccc(-c2[nH]c(C(C)(C)C)nc2-c2ccc3c(c2)OCO3)n1 | 98.5% |
| CC(C)[C@H](CO)Nc1nc(Nc2cc(N)cc(Cl)c2)c2ncn(C(C)C)c2n1 | 0.133% |
| COc1cc2nccc(Oc3ccc(NC(=S)NC(=O)c4ccccc4C)cc3)c2cc1OC | 100% |
| OCC(O)CCON=C1C(c2c(O)[nH]c3ccccc23)=Nc2ccccc21 (stereo not drawn) | 14.3% |
| COc1ccc(OC)c2c(=S)c3ccccc3[nH]c12 | 86.4% |
| COc1cc2ncnc(Nc3ccc(Oc4ccccc4)cc3)c2cc1OC | 115% |
| O=C(CCCc1ccc(-c2ccccc2F)cc1)Nc1ccc(O)cc1 | 92.5% |
| Cc1ccc(Nc2nccc(N(C)c3ccc4c(C)n(C)nc4c3)n2)cc1S(N)(=O)=O | 99.3% |

Block 2
SMILES: O=C(Nc1ccccc1)Nc1cccc(Oc2ccc3nccn3n2)c1
Method: competitive binding panel
Concentration: 1 µM
Reference: vehicle
| target | setting | remaining binding |
| --- | --- | --- |
| Receptor tyrosine-protein kinase erbB-4 (ERBB4, Homo sapiens, UniProt Q15303) | – | 100% |
| Aurora kinase A (AURKA, Homo sapiens, UniProt O14965) | – | 100% |
| Tyrosine-protein kinase ITK/TSK (ITK, Homo sapiens, UniProt Q08881) | – | 98% |
| Protein kinase C epsilon type (PRKCE, Homo sapiens, UniProt Q02156) | – | 100% |
| Serine/threonine-protein kinase MAK (MAK, Homo sapiens, UniProt P20794) | – | 73% |
| Serine/threonine-protein kinase WNK3 (WNK3, Homo sapiens, UniProt Q9BYP7) | – | 100% |
| Tyrosine-protein kinase JAK3 (JAK3, Homo sapiens, UniProt P52333) | JH1 catalytic domain | 100% |
| Serine/threonine-protein kinase ULK2 (ULK2, Homo sapiens, UniProt Q8IYT8) | – | 100% |

Block 3
Target: Calcium/calmodulin-dependent protein kinase type II subunit alpha (CAMK2A, Homo sapiens, UniProt Q9UQM7)
Sequence of UniProt Q9UQM7 (whole entry, looked up): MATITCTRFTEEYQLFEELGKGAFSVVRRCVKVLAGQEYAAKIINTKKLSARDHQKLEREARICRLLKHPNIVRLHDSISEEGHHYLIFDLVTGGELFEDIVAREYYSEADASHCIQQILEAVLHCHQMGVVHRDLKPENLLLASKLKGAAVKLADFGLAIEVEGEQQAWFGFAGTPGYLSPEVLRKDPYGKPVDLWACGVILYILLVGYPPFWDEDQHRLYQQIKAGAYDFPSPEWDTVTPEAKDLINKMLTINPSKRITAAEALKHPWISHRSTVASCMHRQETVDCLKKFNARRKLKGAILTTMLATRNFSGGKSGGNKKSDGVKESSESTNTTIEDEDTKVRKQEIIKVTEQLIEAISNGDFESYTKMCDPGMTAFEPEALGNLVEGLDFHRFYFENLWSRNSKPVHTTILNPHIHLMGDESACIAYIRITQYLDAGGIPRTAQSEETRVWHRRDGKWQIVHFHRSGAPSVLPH
Read-out: enzyme activity
Action: inhibitor
Concentration: 10 µM
| Compound | inhibition [%] |
| --- | --- |
| C[C@@H]1O[C@@H](O[C@H]2[C@H](Oc3cc(O)c4c(=O)cc(-c5ccc(O)cc5)oc4c3)O[C@H](CO[C@@H]3O[C@H](CO)[C@@H](O)[C@H](O)[C@H]3O)[C@@H](O)[C@@H]2O)[C@H](O)[C@H](O)[C@H]1O | -24 |
| C[C@]12C=CC(=O)C=C1CC[C@@H]1[C@@H]2[C@@H](O)C[C@@]2(C)[C@H]1CC[C@]2(O)C(=O)CO | -1 |
| CC(C)(C)c1cc(NC(=O)Nc2ccc(-c3cn4c(n3)sc3cc(OCCN5CCOCC5)ccc34)cc2)no1 | 11 |
| CCC(Cc1c(I)cc(I)c(N)c1I)C(=O)O (stereo not drawn) | -6 |
| C=C[C@@]1(C)CC[C@H]2C(=CC[C@@H]3[C@]2(C)CCC[C@@]3(C)C(=O)O)C1 | 6 |
| CC1=CC(=O)C(C(C)C)=CC1=O | 19 |
| CCCCC/C=C/C=C/C=O | 2 |

Other studies, line by line
| SMILES | tested on | test | setting | scale | measurement | result |
| --- | --- | --- | --- | --- | --- | --- |
| C[C@H](NC(=O)Nc1cc2[nH]ncc2c(CO)n1)c1ccccn1 | Mitogen-activated protein kinase 1 (MAPK1, Homo sapiens, UniProt P28482) | target engagement in cells, BRET | – | – | IC50 | > 10 µM |
| C[C@H](NC(=O)c1cnc2n1[C@](C)(Cc1ccc(C#N)cc1)C(=O)N2c1cc(Cl)c(F)c(Cl)c1)C(=O)NC1(c2ccccn2)CC1 | 5-hydroxytryptamine receptor 5A (HTR5A, Homo sapiens, UniProt P47898) | binding, radioligand binding | 10 µM | – | inhibition | 6.14% |
| CN(C)C(=O)/C(C#N)=C/c1ccc(-c2nc3cnc4c(ccn4C)c3n2C2CCCCC2)o1 | sample B colorectal tumour organoid | – | 0.1 µM | reference: DMSO | viability | 121% |

Repeated from above (block 2):
| target | setting | remaining binding |
| --- | --- | --- |
| Tyrosine-protein kinase JAK3 (JAK3, Homo sapiens, UniProt P52333) | JH1 catalytic domain | 100% |
| Serine/threonine-protein kinase MAK (MAK, Homo sapiens, UniProt P20794) | – | 73% |
| Tyrosine-protein kinase ITK/TSK (ITK, Homo sapiens, UniProt Q08881) | – | 98% |
| Protein kinase C epsilon type (PRKCE, Homo sapiens, UniProt Q02156) | – | 100% |
